Published values from different studies.
Each numbered part is a random draw from the data of one study; scales do not carry over between parts.

Study 1 — technique: protein binding microarray; form: double-stranded DNA, one strand shown; matrix: in vitro; tested at: not given; baseline: not given; direction: higher = stronger binding
Target: Histone acetyltransferase KAT6A, winged helix 1, GST fusion (KAT6A, Homo sapiens, UniProt Q92794, residues 1-85)
Notes: 8-mer, flanks averaged, mean of 2 arrays, mostly near background
Residues (chain): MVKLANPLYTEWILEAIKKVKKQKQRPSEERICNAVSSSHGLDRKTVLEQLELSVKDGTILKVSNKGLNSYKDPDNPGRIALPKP
With `GGGATAGA` the E-score was -0.00507.
`GCATTAAC` gave an E-score of 0.0532.
For `AGATGGCA`, the E-score was -0.176.
`CGCATTAA` gave an E-score of 0.155.
The E-score of `AGAGCCAA` is reported as -0.192.
The E-score of `AATTTACA` is reported as -0.24.
`CCTCCCCA` gave an E-score of -0.0647.
`AGGTAATC` has an E-score of -0.0751.
With `GCATGTTA` the E-score was 0.136.
`AAACGGAA` gave an E-score of 0.193.
`ACCGAGTA` gave an E-score of 0.111.
For `AGACACAA`, the E-score was -0.199.
With `GGCATGCC` the E-score was 0.326.
For `CGGCGTTC`, the E-score was 0.382.
`AAGACAGC` gave an E-score of -0.0638.
`ACAACCAC` gave an E-score of -0.116.
For `CACCTCAC`, the E-score was 0.00743.
With `AGGGCATA` the E-score was -0.186.
The E-score of `GAGTATCC` is reported as -0.0394.
For `ACGGACGG`, the E-score was 0.386.
`AGGATGAG` gave an E-score of -0.0202.
The E-score of `CTACTCAC` is reported as -0.0381.
With `GGATCTAA` the E-score was 0.0495.
`ATGCTAAG` gave an E-score of -0.0379.
With `ATAAGCTA` the E-score was -0.0839.

Study 2 — technique: RNA Bind-n-Seq; form: RNA; matrix: in vitro; tested at: 200 nM; notes: whole 134-nt RNA, ends assumed; added: 150 mM LiCl; baseline: input library; direction: higher = stronger binding; each molecule: 7-deaza-guanosine replaces G
Target: Ras GTPase-activating protein-binding protein 1, full length (G3BP1, Homo sapiens, UniProt Q13283)
Chain of UniProt Q13283 (whole entry, looked up): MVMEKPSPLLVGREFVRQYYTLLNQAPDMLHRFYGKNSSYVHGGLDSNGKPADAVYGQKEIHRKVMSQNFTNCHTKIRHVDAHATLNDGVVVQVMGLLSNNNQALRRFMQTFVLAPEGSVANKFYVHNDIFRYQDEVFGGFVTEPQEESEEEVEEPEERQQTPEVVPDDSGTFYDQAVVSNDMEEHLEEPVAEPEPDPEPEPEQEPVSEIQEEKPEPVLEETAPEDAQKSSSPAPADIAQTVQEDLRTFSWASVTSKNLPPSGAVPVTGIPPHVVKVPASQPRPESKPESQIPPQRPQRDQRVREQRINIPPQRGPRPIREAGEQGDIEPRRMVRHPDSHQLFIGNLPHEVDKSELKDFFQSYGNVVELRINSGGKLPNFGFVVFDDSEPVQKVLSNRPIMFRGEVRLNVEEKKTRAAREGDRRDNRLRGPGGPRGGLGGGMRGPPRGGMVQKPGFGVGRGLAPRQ
`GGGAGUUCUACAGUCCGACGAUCUGGCUGGCUGUGGCCUCACAGCUGAGGACUGCAAGGACCUUGCCUUUGGGCUGAGAGCCAACCAGACCCUGACCGAGCUGGACCUGAGCUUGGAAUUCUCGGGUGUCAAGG` has a log2 enrichment of -2.6.
`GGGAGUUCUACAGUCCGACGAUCCACAGACAACACGCACCCACACAGACACAGAGGGAAAAAGUUGGGAUGGGGACAGGGUGCACAGCAGGGCGGGGUAGGACCCCAGCCCCUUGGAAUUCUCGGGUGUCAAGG` has a log2 enrichment of -1.51.
With `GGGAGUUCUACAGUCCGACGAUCUAUUGAUGCAUUUGACCCUACACUGGCUCCAGCCACAGGAACUCCUGUUGUCGGGGGACUAACCUAUCGAGAAGGCAUGUAUAUUGCUGAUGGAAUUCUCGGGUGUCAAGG` the log2 enrichment was 0.334.
`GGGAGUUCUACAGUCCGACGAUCUCAAGUCCUGUGCUACACAUCGUAUGUACCGAAUCGGGUGGGUUUGGGUUUGGGAAAGUAUUAUGUUACGCCGUUCGGAUCUGCACUUCCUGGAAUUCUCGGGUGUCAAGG` has a log2 enrichment of -1.05.
For `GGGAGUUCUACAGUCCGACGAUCUGGCCCUGGUGGCAUGUGGGGAGGAAGAGGUGGCCUCAUGGAUCGUGGUGGUCCCGGUGGAAUGUUCAGAGGUGGCCGUGGUGGAGACAGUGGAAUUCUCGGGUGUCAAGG`, the log2 enrichment was 0.5.
With `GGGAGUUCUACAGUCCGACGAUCUAACUUUAGUGGAGGAUCUGAUGGAUAUGGCAGUGGACGUGGAUUUGGGGAUGGCUAUAAUGGGUAUGGAGGAGGACCUGGAGGUGGCAAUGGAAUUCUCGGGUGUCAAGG` the log2 enrichment was 0.0466.
`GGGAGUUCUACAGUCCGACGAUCCCUCAAGUCCUGUGCUACACAUCGUAUGUACCGAAUCGGGUGGGGUGGUGGGGAAAGUAUUAUGUUACGCCGUUCGGAUCUGCACUUCCAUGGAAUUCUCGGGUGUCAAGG` has a log2 enrichment of -0.0138.
`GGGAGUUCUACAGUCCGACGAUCACCAUGCAGGUGGGCAUCUUUGGGAAGUGGGGCAAGGGGGGGAUAGGGAGGAAAGUAACACUUUGGGAACAGGUGGUCCCAGGUCGUUUCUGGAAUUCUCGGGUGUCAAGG` gave a log2 enrichment of 0.00375.
With `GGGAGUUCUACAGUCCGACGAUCUCUUGUAUGACUUAACCCCUGUUUCUAAUACAGGGGCCGCUCUCCUCAGCCUCCUGCUGAAGAGGAUGAAGAUGACUUUGAUGAUACCCUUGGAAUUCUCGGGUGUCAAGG` the log2 enrichment was -0.28.
With `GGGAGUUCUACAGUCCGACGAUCGCAGGAAGUAAAAACAAAUGGAAAUGCUUCGGAUAGUGGCAGGGGAAAGGGUUGCUAAGGAAAGGGUGGGAUGGGAGUGGGUAAAGAGUUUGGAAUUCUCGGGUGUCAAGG` the log2 enrichment was 0.038.
For `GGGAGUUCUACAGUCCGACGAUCGCAGGAAGUAAAAACAAAUGGAAAUGCUCCGGAUAGUGGCAGGGGUGGGGGUUGCUAAGGAAAGGGUGGGAUGGGAGUGGGUAAAGAGUUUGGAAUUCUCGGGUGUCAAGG`, the log2 enrichment was 0.12.

Study 3 — technique: universal PBM; form: double-stranded DNA, one strand shown; matrix: in vitro; tested at: not given; direction: higher = stronger binding
Target: Sal-like protein 4, full length isoform B (SALL4, Homo sapiens, UniProt Q9UJQ4-2, residues 1-616)
Notes: 8-mer, flanks averaged, mean of replicates
`GAATCGTC` has an E-score of -0.0837.
`CAACCGCG` has an E-score of -0.151.
`ATAGGAAT` has an E-score of 0.234.
`CATTCCCC` has an E-score of -0.18.
With `ATAACCAT` the E-score was 0.317.
`GTACTCCA` gave an E-score of -0.136.
`CTGAACGA` gave an E-score of -0.123.
`GAGACCTC` has an E-score of -0.169.
The E-score of `CCTGCATC` is reported as -0.158.
`CATACCGG` has an E-score of -0.104.
For `CCAGCATC`, the E-score was -0.281.
With `CGTTTAGC` the E-score was -0.0318.
`ACGGGGCA` gave an E-score of -0.172.
The E-score of `AGCTGGTA` is reported as -0.185.
For `AGCGGCGA`, the E-score was -0.172.
For `ACGATAAT`, the E-score was 0.364.
The E-score of `CTAACTGA` is reported as -0.0115.
The E-score of `ACGTGCGG` is reported as -0.165.
`GATTGAAA` has an E-score of 0.242.
The E-score of `AAACGCGA` is reported as 0.0219.
For `GAACCTAA`, the E-score was -0.0707.
For `CACACCTC`, the E-score was -0.126.
`ATACTTAA` has an E-score of 0.333.
For `CGAGCTAC`, the E-score was -0.0813.
`AACCCTTA` has an E-score of 0.214.

Study 4 — technique: protein-binding microarray; form: double-stranded DNA, one strand shown; matrix: in vitro; tested at: not given; direction: higher = stronger binding
Target: Max-binding protein MNT, bHLH-zipper, MAX partner unstated (MNT, Homo sapiens, UniProt Q99583, residues 220-300)
Notes: k-mer, scored over probes, only values ≥0.25
Target sequence (chain): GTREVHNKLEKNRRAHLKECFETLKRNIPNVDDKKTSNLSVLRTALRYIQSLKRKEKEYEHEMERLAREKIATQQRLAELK
`CCACCCTC` gave an E-score of 0.274.
The E-score of `GCACTCCC` is reported as 0.268.
With `CCACGAGC` the E-score was 0.36.
For `CTGTGGCC`, the E-score was 0.272.
The E-score of `ACGTTGCC` is reported as 0.31.
`GTGGGAAC` gave an E-score of 0.29.
`ACCACATG` has an E-score of 0.475.
With `CGCATGCA` the E-score was 0.416.
`GCCCTCCC` has an E-score of 0.26.
With `GCATGACA` the E-score was 0.341.
For `ACCTCGTG`, the E-score was 0.465.
`ACATGCCA` has an E-score of 0.386.
`AAGCGTGG` has an E-score of 0.381.
For `CGTGGTGC`, the E-score was 0.405.
For `CATGCCAA`, the E-score was 0.301.
`ACATGTGA` has an E-score of 0.466.
For `CATGCACA`, the E-score was 0.403.
`ACATTGTG` gave an E-score of 0.262.
`CATGCCGA` has an E-score of 0.363.
The E-score of `CACGCCGC` is reported as 0.391.
For `GCCATGCC`, the E-score was 0.355.

Study 5 — technique: protein-binding microarray; form: double-stranded DNA, one strand shown; matrix: in vitro; tested at: 250 nM; notes: 60-bp whole probe; added: salmon DNA 0.4 mg/ml; baseline: random background probes; direction: higher = stronger binding; all sequences stand within: GCCTAGCAC … GTCTTGATTCGCTTGACGCTGCTG
Target: Interferon regulatory factor 7, full length, phosphomimetic (IRF7, Homo sapiens, UniProt Q92985, residues 1-503, S101K/S471D/S472D/S475D/S476D/S477D/S483D/S484D/S487D)
Chain of UniProt Q92985 (whole entry, unmodified, looked up): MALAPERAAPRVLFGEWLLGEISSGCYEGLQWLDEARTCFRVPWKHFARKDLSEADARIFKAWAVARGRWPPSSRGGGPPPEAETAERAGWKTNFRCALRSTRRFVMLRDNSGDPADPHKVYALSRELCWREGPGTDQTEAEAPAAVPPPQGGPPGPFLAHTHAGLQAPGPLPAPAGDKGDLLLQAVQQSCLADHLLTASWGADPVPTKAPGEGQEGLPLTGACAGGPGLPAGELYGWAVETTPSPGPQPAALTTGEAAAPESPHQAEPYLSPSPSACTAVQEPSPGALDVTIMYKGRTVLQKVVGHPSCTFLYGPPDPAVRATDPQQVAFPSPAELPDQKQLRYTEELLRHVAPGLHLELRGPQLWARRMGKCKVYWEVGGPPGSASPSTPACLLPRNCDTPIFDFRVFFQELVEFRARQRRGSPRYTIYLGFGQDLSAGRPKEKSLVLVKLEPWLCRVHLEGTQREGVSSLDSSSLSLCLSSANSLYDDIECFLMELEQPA
`GACGGTATCGACTATTGGGACGTGCTA` has a log fluorescence of -0.271 z-score.
For `TCAAGAGTAGCTTTCTGACTGTGCTAG`, the log fluorescence was -0.606 z-score.
`TTAGGTAGCGGTTTCGGTTAGTGCTAG` gave a log fluorescence of 7.8 z-score.
With `TTACGTATCGGGTTTCGGTTAGTGCTA` the log fluorescence was 6.32 z-score.
The log fluorescence of `GAGGCTTTTTTTTTTTTTTTGTGCTAG` is reported as -0.361 z-score.
`GACGATTTCACTTCCGAGACGTGCTAG` gave a log fluorescence of 0.493 z-score.
For `TACGATCTCAGTTTCGAGACGTGCTAG`, the log fluorescence was 3.93 z-score.
`CCCAATCTCTCTTCACATATGTGCTAG` gave a log fluorescence of 0.756 z-score.
For `ACTCAGCTCCTCTTCCAGGCGTGCTAG`, the log fluorescence was -0.532 z-score.
For `TTAGGTATTGGGACTGGGTTAGTGCTA`, the log fluorescence was -0.32 z-score.
The log fluorescence of `GACGGTTTCCTACTGCTTACGTGCTAG` is reported as 1.38 z-score.
The log fluorescence of `CTAGTTGTACTTTCTATCTCTGTGCTA` is reported as 1.83 z-score.
`TTAGATATCAGTCTAGATTAGTGCTAG` gave a log fluorescence of -0.204 z-score.
`ATTTGTAAGTACATTAACTCGTGCTAG` gave a log fluorescence of 0.175 z-score.
`TTATATCTCAGACTGGATTAGTGCTAG` gave a log fluorescence of 0.365 z-score.
With `GACGATTTCAGTCTCGAGCCGTGCTAG` the log fluorescence was 0.274 z-score.
With `TTAGGGTCCCTTTTCCTTTAGTGCTAG` the log fluorescence was 2.06 z-score.

Some of these lines once more (study 4):
The E-score of `ACGTTGCC` is reported as 0.31.
`GTGGGAAC` gave an E-score of 0.29.
`ACCACATG` has an E-score of 0.475.
With `CGCATGCA` the E-score was 0.416.
`GCCCTCCC` has an E-score of 0.26.
With `GCATGACA` the E-score was 0.341.
For `ACCTCGTG`, the E-score was 0.465.
